# Experimental data gathered from unrelated publications.
# Numbered parts are unrelated; each lists some results of a single study.

# Set 1
# Target: RNA binding protein fox-1 homolog 2, RRM domain, GST-SBP tag (RBFOX2, Homo sapiens, UniProt O43251-10, residues 100-194)
# Technique: RNA Bind-n-Seq
# Form: RNA
# Sample: in vitro
# Concentration: 365 nM
# Setting: natural RNA segment, single round, ends assumed
# Relative to: no-protein control
# Direction: higher = stronger binding
# All sequences stand within: GGGAGUUCUACAGUCCGACGAUC … UGGAAUUCUCGGGUGCCAA
# Residues (chain): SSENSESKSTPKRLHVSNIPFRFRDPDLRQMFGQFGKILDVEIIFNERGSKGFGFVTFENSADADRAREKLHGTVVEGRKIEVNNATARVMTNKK
Strand,RBNS enrichment (R)
GUGAUCAUUGUUGAACUUCAGCUCCAGUGUCUCUCCAGAAUAAGACAUUGGCAUUCAAAUGUCUAUAUCUUGUUACUUACAAAAUAAAAAACAGAUUAAUUAGUGGCUUU,0.593
CAGCAGUGGCAAGUCAAGGGAAGCCAGUCUUCAGUGUAAGGACCCGCAGUGGCUAUCCUAGUGUACAUUCUCCUGGAGAGCAGCUUCUGUGGCUGAAUCAGGUGUCCAGG,0.22
UUUCUCAUUUCCUGUAGAGAGAGAAUACCACUAACAAACAAACAAAAACUUUAGUGCCAAAAUAGUGGAACUAUUUUGUCAUCUUUUGAGAAAAAAAUAUACAAAGAAGU,0.578
AGACUAUUUUCCCCCAGUAGCGCUUUUUUCUGGAUUUGCAUUCAGGUGUUAUUCUUAAUGUUUCUGUCAAAGCUUCUUAAAAAUCUUCACUUGGUUUCAGCCAUAGUUCA,0.508
CACCCCCUGCUGGGUCUCCUGCAUUCCACGGAGCCCCUGCUGCCAGGGCGGUGUCUGAGCCUGCCGGCGCCACCUGGGCCCCGGCCCUUGAGGUACUCCCUGAGCAGGAC,0.332

# Set 2
# Target: Sal-like protein 4, full length isoform A (SALL4, Homo sapiens, UniProt Q9UJQ4, residues 1-1053)
# Sequence of UniProt Q9UJQ4 (whole entry, looked up): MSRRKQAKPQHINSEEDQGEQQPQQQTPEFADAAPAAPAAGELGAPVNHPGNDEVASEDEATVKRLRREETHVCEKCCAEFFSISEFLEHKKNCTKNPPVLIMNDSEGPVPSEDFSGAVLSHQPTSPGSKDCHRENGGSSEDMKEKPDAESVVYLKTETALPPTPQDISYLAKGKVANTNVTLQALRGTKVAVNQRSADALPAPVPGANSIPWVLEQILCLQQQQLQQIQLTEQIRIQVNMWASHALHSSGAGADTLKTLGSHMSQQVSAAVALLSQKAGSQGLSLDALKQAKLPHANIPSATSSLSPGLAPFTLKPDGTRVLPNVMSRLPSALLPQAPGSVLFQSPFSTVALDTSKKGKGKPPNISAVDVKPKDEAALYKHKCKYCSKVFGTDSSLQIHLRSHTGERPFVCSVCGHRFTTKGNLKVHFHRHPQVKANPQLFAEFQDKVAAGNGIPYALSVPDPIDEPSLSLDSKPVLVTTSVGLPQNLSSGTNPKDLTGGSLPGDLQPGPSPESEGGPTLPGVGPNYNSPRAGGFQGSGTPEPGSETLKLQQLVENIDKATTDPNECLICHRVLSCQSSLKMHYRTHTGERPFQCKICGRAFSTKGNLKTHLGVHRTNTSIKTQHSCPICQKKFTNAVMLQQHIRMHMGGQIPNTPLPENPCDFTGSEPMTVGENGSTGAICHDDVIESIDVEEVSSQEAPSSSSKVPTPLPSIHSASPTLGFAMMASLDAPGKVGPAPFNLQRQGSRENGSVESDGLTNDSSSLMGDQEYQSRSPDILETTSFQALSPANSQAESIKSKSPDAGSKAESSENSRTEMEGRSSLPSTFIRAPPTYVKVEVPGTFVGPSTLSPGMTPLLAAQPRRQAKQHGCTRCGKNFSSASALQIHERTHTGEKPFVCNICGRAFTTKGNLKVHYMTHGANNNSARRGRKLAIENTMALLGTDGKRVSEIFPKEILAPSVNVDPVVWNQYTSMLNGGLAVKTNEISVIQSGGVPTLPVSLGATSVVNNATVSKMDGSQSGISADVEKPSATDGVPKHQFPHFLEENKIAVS
# Technique: universal PBM
# Form: double-stranded DNA, one strand shown
# Sample: in vitro
# Concentration: 600 nM
# Setting: 8-mer, flanks averaged, mean of replicates
# Direction: higher = stronger binding
Strand,E-score
AGGAAAGC,-0.0365
AATACGCA,0.121
CGAGAGCA,-0.0619
ATGAATTC,0.203

# Set 3
# Target: TAR DNA-binding protein 43, full length, His tag (TARDBP, Homo sapiens, UniProt Q13148, residues 1-414)
# Technique: RNA Bind-n-Seq
# Form: RNA
# Sample: in vitro
# Concentration: 20 nM
# Setting: 6-mer, flanks averaged, single round
# Added: 150 mM LiCl
# Relative to: input library
# Direction: higher = stronger binding
Strand,6-mer enrichment (R)
CAGAAC,0.848
GGCGUG,1.28
GGAAGC,0.962
GACACU,0.962
UUACCA,0.905
CCACUA,0.908
ACCUAA,0.838

# Single results of other studies
Molecule,target,test,test system,setting,how to read,measurement,result
"PhoQ, residues 284 288 289 292 302 303 TNSAEL","PhoP, residues 12 14 15 18 19 TPWLV (Escherichia coli, UniProt P23836)","Sort-seq, refers to: YFP reporter",E. coli,"PhoQ-PhoP variant library, added: 10 µM Mg2+","relative to: high Mg2+ state, higher = stronger signaling",fold induction,0.875

# Repeated from above (set 3):
Strand,6-mer enrichment (R)
CCACUA,0.908
